Published values pooled from the literature.
Every numbered part comes from another study and shows a few of its results, in no order. Substitutions count along the parent as printed.

Sample 1 — method: RNA Bind-n-Seq; molecule type: RNA; matrix: in vitro; tested at: 365 nM; relative to: no-protein control; direction: higher = stronger binding
Target: RNA binding protein fox-1 homolog 2, RRM domain, GST-SBP tag (RBFOX2, Homo sapiens, UniProt O43251-10, residues 100-194)
Notes: natural RNA segment, single round, ends assumed
All sequences stand within: GGGAGUUCUACAGUCCGACGAUC … UGGAAUUCUCGGGUGCCAA
Target sequence (chain): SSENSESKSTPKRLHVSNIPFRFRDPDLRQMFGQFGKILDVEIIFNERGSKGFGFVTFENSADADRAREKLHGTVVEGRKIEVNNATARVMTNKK
| Strand | RBNS enrichment (R) |
| --- | --- |
| AAGUCACCAGGUAGCUUCCAUGAGGAAUAGCUCCUCACGGUUCAUUUUUUCAGUUAGAAGAAGGUUUUUAUGAGUUAAUUUUACCCAUAAAUAUUUCAGUAAUUUUGGAG | 0.485 |
| UAUAAAAUGAUGGCUUGGAAAAGCAGGCUAGUCUAACCAUGGUGCUAUUAUUAGGCUUGCUUGUUACACACACAGGUCUAAGCCUAGUAUGUCAAUAAAGCAAAUACUUA | 0.337 |
| GGACCUUUGAACUUGCCAGAUACCUUAAGUGUCUUCCCAGAAUCUGCCCACCUGUCAUCAGCCCCCCAGCCCCCCACCACUCAGGGACACUCUGCUAAUAGACACAAGCU | 0.424 |
| AAGCAGUUUUGUCUUGGAAUUUUGUAUGUUGUAGGAAUCCUUAGAGAGUGUGGUUCCUUCUGAUGGGGAGAAAGGGCAAAUUAUUUUAAUAUUUUGUAUUUUCACCUUUA | 0.444 |
| AACAAUUACAGAAACAGUCAAGUGUUUUCCAAUGUGGUUGUCCGGUUUCUAUGGCCUUGCUGUGUACUUUCCCUCUUUUUGACAGUAAACUUCUGCCUAUGGCUUACAGU | 0.369 |
| CUCCUGGCCAAGUGUUCUCUGUUUUCCUCGCACCUCCUUACACUGUGUGACCUGCAGGGCAUGAGGUAUUGAUGUGUUCGGGUUUCCUUUCCCAAGCCAGCAGAUGCAGG | 0.798 |
| CUCUUCUCCAAGAGCGCAUGCAAGAGUCUCCCCCCCUCAGCCUCAUUAAAGACGAAAAGCCACCUCGGUUUGCUUAACUUUAGAUAGAUAGGACCUGGCGCACACAAGAG | 3.71 |
| GGUUCAAUUUCAAGUCUGCUGUGGCUAAUAGUGGUCAAGAUUCCGAACUAGGACUUUCCUCUGUGAAGAGGAUGCCUCUGAAGAAAUUUUAAACUGGUGAUUUUGGUUGC | 0.322 |
| UUAUGAGGAAACUAUUUGGAUUAGUGGCCAGAAACGAUGAAAUCUUAUAGAUCUUUUGACAGUUUCUCUGUUUAGGGGAGCCUAGACUGAUAUCAAGUUUCUUCAUAUCA | 0.364 |
| CUGGGGUCCCCCAUCCCCAUCCUCCAGCUUCUGGUACUCUCCUAGAGACAGAAGCAGGCUGGAGGUAAGGCCUUUGAGCCCACAAAGCCUUAUCAAGUGUCUUCCAUCAU | 0.263 |
| GACACACCAGAAGAGGGCAUCAGAUCCCAUUACAGAUGGUUGUGAGCCACCAUGUGGUUGCUUUAAGAUUUAUGUAUAUGAGUACACUGUGGCUGUCUCAGACACACCAG | 0.258 |
| ACUGAACAGAAUUAUAGACAUUUGCUGGUGGAAGGGAUAACUAUGUACAUCUAACUAGGACUCAGAAAGAGCUCCUGCGCAUGGUCAUAGAACAAUGGCGUUCUGUAAUU | 11.9 |

Sample 2 — method: universal PBM; molecule type: double-stranded DNA, one strand shown; matrix: in vitro; tested at: not given; direction: higher = stronger binding
Target: Sal-like protein 4, full length isoform B (SALL4, Homo sapiens, UniProt Q9UJQ4-2, residues 1-616)
Notes: 8-mer, flanks averaged, mean of replicates
| Strand | E-score |
| --- | --- |
| ACAAGAGT | 0.103 |
| CGTCCCTA | -0.101 |
| GCTACCAA | 0.0258 |
| AAGGCCGA | -0.111 |
| ACAGGATG | 0.0362 |
| CCCATTTC | -0.0377 |
| AGGTATTC | 0.0357 |
| CTTGGAGA | -0.0455 |
| ATCTACTC | 0.0585 |
| GTTGTAAA | 0.147 |
| CAGCCCAA | -0.107 |
| GATATCCA | 0.215 |
| TCAAGTGA | 0.097 |
| GTCCAATA | 0.199 |
| ACATCCAG | 0.0349 |
| ATGCTTCG | 0.00943 |
| CCTCAAAA | 0.0764 |
| CAAGCGCA | -0.00201 |
| AAGACATT | 0.112 |
| CTCACGAA | 0.0044 |
| GGAATTAC | 0.0575 |
| CGCCCCAA | -0.17 |
| ATTGGATA | 0.229 |
| CGAAATGA | 0.154 |
| AAGCCGAA | -0.0217 |

Sample 3 — method: RNAcompete; molecule type: RNA; matrix: in vitro; tested at: 20 nM; notes: 7-mer, probes averaged, single round; relative to: mean of 7-mers; direction: higher = stronger binding
Target: PABPC1L2, full length, GST fusion (mouse, UniProt A0ABA7IW68)
Construct (chain): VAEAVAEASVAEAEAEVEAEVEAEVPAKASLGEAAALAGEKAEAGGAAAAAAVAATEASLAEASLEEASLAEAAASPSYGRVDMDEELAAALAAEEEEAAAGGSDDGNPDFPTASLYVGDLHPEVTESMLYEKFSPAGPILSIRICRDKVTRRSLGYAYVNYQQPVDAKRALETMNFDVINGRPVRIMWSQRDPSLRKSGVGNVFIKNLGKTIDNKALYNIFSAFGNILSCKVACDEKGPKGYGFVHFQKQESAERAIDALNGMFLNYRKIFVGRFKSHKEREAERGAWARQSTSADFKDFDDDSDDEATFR
| Strand | 7-mer Z-score |
| --- | --- |
| CAUUAGC | -0.267 |
| GGCGGCU | 0.0551 |
| UGCCGCG | -0.271 |
| CCUAUGG | -0.228 |
| GUUGUGC | -0.242 |
| GUUAAAA | 1.92 |
| GCUGGCA | 0.0605 |
| CCUCGGC | -0.289 |
| AUGUCGG | 0.0189 |
| GGAGUCC | -0.148 |
| GCGUCAG | -0.224 |
| UAGAGGG | 0.207 |
| GUGACAC | -0.0554 |
| UUGUACC | -0.458 |
| CUCCCUC | -0.412 |
| AAAUCUC | 0.483 |
| UUUCAUC | -0.383 |
| UUCGGUG | -0.296 |
| UUAGGAG | 0.0623 |
| UGAGGCA | 0.0569 |
| UGCGUCA | -0.309 |
| UCAAAAC | 0.914 |
| ACGUUCG | -0.389 |

Sample 4 — method: RNA Bind-n-Seq; molecule type: RNA; matrix: in vitro; tested at: not given; relative to: input RNA pool; direction: higher = stronger binding
Target: RING finger protein unkempt homolog, zinc fingers 1-6, GST-SBP tag (UNK, Homo sapiens, UniProt Q9C0B0, residues 30-357)
Notes: RNA with constant flanks, human and mouse sites, ends assumed
All sequences stand within: GGGAGUUCUACAGUCCGACGAUC … CAACAGAGGAUUGAGCAUCA
Target sequence (chain): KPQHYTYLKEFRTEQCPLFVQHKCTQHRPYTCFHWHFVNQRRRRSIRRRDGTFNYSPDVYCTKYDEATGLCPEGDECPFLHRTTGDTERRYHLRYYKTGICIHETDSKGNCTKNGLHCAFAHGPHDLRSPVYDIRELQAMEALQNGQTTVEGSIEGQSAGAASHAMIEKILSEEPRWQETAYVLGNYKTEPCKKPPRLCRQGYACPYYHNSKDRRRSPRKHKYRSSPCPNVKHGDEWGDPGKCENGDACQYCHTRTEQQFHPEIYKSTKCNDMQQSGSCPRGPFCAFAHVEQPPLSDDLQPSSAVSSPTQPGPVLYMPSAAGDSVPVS
| Strand | bound/input enrichment |
| --- | --- |
| AACUCCUGUGAUGAGCACAUGGAGCUUGAUGACCUUCCUGAACUUCAGGCUGUUCAAAGUGACCCUACCCAAUCUGCCAUAUACCAGCUAAGUUCAGAUGUAUCUCAUCAAGAAUAUCCA | 0.147 ratio |
| AUCACCCAGCUGAAUCUUAGCGGCUACAGAAAGAAUCUCCAGAAAUCAGAUCUCUCUACUUUAGUUAGAAGAUGCCCCAAUCUUGUCCAUCUAGACUUAAGUGAUAGUGUCAUGCUAAAG | 1.75 ratio |
| GCAACCAAAGAUGUACAUAAAGGAGAGUCUGGAAGCCAGGAAGGGGGGGUAAAUAGUUUUAGUACCUUAAUUGGCCUCCCUUCAACCUCAGCUGUUACUUCACAGCCUAAAAGCUUUGAA | 1.01 ratio |
| CUUGUUUAAAGCAAAACAAGACCUUGAAAGGUCAAUCAUAUUAAAGCUGGUUUGAUUAUUAAUAGUUAUCUUUUAGGAAGAAGCUUUUUUCCCUAUGUAAGAUGUCAUACUGCAGAUUUA | 7.43 ratio |
| UUGGUUUUCUUAACUGUUGGCUUCUCCCCACAGCGUUUUUUGUUUUUUUUUAAACAUUCAUAUUGUUUUCAAACUUGGAAUUCAUAGACACUCUGGCUCUAGGUUCCUUAAGGGGGAAAA | 0.267 ratio |
| AAAGCAACUUUUAUCAAAGUACCCCAGAACCAAAAUGGCAAAUCUAAAGGGUAUGCAUUUAUAGAGUUUGCUUCAUUCGAAGACGCUAAAGAAGCUUUAAAUUCCUGUAAUAAAAGGGAA | 0.0984 ratio |
| GCUCCACCUGCCCCAGCUCUGCCCGGUGUGGAAGAAGCAAGUGUCCUAAGCACCUAACUCUAGUUUUGUUACAAGUAUAACUUAGGAGAAAAAAUUGGUAGAAAUAAUACAGUAUGUUGC | 5.01 ratio |
| UUCUCCGGUGGAGAAACUGCAGAGGACUGGUGGGCGGGGCUCCCCAGCCAUCACCAUCCUGUGUACAAUGGCUGUAGACUUGUAUAUGGCUCCUUUAAUAUUGUAAAGAUGCUGAUGUAC | 20.7 ratio |
| CCUUCAGUCUAAAAGACAUGAAAGAAGUGUAAGUAUAGCAGUUAAAACGAAAAUAAUGGUUAUGGGUGUUUUGACUGGAGGCAAUGUAGCCAAAUAGAGUAAAGAGACCCCCCUGGUCGG | 5.33 ratio |
| UGUCUGGCCCAGGUGCUGCAGAAGGAUGUGGGAAAGCGGCUGCAGGUUGGCCAGGAACUCAUAGACUAUUUCUCAGACAGACAGAAGUCUGCUGACCUUGAGCACGACCAGACCCUGUUG | 0.647 ratio |
| AGGGUUGUUUCAUCUCAAAGACCAUUUCAAGAAUCUUCUGACAAUGAAGGUAGGCGGACAACGAGGAGAUUGCUGUCACGCAUAGCUUCUAGCAUGUCAUCUACUUUUUUUUCACGAAGA | 0.126 ratio |

Sample 5 — method: DHFR PCA, deep sequencing; matrix: yeast; added: (+)-ABA 1.4 µM; relative to: wild-type fitted maximum; direction: higher = stronger binding
Target: ABI1, truncated, D143A, DHFR fusion (Arabidopsis thaliana)
Notes: methotrexate growth selection, single substitutions
Starting sequence: PYL1, truncated, DHFR fusion (Arabidopsis thaliana); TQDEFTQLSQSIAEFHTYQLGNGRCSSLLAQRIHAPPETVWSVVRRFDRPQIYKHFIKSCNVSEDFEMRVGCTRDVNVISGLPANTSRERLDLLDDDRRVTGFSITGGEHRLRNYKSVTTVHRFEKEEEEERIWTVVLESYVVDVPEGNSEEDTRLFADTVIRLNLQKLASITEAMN
| Variant | relative binding score |
| --- | --- |
| V118D | 5.05% |
| R88F | 42.1% |
| R69D | 22.1% |
| Y115A | -6.77% |
| F56H | -0.584% |
| E109Y | 10.6% |
| I79L | 8.61% |
| E89N | -11.8% |
| I12G | -4.21% |
| N114H | 20.5% |
| G107F | -2.29% |
| R123C | 40.1% |
| L138T | -5.51% |
| W41P | -9.78% |
| R88V | 63.9% |
| E128C | 61.5% |
| N165Y | -9.17% |
| E131Q | 69.7% |
| F66A | 30.5% |
